Measurements collected from several papers.
Lines come from different studies, so protocols differ.
SLC2A1: Solute carrier family 2, facilitated glucose transporter member 1 (SLC2A1, Homo sapiens, UniProt P11166)
UniProt P11166, sequence (whole entry, looked up): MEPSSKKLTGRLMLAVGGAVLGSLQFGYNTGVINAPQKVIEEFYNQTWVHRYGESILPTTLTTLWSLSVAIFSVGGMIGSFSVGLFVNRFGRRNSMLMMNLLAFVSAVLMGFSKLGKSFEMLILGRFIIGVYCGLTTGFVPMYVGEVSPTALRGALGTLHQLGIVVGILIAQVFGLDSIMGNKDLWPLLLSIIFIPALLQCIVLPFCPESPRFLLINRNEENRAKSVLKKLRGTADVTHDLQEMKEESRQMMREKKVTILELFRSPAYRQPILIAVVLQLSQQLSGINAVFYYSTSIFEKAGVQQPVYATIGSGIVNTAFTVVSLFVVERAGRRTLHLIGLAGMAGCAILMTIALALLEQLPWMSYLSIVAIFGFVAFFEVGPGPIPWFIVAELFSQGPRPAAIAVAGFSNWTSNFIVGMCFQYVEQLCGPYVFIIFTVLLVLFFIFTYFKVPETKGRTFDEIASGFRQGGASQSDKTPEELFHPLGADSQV
MPO: Myeloperoxidase (MPO, Homo sapiens, UniProt P05164)
UniProt P05164, sequence (whole entry, looked up): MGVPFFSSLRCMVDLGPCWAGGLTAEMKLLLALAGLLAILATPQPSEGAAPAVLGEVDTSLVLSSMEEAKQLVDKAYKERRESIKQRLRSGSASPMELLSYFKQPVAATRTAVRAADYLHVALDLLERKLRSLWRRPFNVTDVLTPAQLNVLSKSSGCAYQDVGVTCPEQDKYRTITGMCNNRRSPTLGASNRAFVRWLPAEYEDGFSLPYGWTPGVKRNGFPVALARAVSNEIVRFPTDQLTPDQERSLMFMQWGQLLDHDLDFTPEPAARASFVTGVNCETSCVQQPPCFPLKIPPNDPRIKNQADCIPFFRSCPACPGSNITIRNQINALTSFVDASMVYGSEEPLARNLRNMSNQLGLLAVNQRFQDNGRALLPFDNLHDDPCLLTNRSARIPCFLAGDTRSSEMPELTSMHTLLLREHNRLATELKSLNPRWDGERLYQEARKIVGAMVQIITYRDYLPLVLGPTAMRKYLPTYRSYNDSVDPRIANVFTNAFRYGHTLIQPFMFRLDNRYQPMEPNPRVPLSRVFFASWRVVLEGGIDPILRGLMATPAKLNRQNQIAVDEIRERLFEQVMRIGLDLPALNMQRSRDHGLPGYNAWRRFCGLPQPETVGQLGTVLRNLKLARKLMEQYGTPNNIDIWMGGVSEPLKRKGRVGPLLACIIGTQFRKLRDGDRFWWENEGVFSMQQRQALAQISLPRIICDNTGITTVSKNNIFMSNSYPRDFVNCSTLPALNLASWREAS
RET: Proto-oncogene tyrosine-protein kinase receptor Ret (RET, Homo sapiens, UniProt P07949)
UniProt P07949, sequence (whole entry, looked up): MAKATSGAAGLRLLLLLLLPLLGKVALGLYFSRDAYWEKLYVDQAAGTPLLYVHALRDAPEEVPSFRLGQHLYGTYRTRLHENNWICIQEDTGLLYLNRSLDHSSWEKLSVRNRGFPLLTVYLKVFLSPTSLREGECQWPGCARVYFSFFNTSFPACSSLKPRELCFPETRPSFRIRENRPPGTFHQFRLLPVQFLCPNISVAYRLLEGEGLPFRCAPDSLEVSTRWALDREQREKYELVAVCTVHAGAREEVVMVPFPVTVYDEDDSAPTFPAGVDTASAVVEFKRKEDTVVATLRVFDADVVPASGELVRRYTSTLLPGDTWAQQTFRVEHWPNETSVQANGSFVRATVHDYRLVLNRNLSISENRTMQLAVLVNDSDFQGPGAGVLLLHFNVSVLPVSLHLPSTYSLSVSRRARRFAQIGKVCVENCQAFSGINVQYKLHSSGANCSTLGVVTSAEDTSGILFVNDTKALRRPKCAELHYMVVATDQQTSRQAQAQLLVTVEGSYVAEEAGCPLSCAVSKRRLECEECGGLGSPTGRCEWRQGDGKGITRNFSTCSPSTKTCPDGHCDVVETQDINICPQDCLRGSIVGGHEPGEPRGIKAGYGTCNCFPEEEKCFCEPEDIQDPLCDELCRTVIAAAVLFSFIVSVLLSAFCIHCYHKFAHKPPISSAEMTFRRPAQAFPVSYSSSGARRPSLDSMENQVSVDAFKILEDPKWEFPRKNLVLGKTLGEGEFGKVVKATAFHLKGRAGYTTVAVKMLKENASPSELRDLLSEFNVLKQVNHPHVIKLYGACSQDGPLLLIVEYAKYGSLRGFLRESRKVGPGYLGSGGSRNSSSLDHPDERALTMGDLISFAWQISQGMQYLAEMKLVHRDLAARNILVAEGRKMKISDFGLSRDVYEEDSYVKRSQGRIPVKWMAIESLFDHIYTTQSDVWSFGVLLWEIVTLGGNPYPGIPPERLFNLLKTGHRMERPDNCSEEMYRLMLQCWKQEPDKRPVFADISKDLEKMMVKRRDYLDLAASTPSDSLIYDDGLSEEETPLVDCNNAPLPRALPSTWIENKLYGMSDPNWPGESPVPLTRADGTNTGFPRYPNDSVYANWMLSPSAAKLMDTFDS
AAK1: AP2-associated protein kinase 1 (AAK1, Homo sapiens, UniProt Q2M2I8)
UniProt Q2M2I8, sequence (whole entry, looked up): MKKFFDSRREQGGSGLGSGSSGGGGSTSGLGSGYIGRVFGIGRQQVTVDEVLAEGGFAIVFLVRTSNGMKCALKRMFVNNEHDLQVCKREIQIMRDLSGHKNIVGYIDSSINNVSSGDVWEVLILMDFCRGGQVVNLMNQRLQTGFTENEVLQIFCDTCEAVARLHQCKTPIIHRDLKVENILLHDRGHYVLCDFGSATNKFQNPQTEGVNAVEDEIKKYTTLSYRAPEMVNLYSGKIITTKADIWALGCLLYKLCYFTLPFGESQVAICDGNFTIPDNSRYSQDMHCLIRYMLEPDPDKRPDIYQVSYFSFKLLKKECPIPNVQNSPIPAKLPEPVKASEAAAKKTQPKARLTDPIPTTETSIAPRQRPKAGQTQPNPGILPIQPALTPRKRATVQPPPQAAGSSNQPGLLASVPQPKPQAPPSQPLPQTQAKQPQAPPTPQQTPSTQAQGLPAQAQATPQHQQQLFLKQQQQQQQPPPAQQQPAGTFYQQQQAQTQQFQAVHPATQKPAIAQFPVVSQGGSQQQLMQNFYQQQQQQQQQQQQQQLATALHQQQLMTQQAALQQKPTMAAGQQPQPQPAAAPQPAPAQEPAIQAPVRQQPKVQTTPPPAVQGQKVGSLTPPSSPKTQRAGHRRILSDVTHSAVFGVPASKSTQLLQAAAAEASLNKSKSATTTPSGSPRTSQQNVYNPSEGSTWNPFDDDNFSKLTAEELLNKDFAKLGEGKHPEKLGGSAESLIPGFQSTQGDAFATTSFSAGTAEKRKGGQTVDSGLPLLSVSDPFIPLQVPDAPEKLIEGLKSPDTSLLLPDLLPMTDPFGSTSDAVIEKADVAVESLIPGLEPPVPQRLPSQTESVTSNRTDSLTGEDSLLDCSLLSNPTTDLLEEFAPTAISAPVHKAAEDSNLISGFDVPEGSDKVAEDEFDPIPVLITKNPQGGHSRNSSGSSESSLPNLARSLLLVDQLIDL
UniProt Q15208, sequence (whole entry, looked up): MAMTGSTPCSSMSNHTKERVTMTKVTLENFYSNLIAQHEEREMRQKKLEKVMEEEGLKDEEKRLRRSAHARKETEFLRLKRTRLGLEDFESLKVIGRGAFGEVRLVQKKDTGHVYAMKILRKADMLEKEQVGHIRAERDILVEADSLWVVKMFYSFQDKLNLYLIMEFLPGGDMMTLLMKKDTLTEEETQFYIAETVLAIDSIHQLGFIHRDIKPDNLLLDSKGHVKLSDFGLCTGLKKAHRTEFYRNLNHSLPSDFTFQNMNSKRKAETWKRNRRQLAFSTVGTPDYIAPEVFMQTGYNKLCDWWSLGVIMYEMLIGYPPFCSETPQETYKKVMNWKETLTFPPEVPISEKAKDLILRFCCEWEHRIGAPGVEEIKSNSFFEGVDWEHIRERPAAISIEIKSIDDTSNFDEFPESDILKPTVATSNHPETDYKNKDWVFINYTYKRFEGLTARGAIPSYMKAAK
UniProt O14744, sequence (whole entry, looked up): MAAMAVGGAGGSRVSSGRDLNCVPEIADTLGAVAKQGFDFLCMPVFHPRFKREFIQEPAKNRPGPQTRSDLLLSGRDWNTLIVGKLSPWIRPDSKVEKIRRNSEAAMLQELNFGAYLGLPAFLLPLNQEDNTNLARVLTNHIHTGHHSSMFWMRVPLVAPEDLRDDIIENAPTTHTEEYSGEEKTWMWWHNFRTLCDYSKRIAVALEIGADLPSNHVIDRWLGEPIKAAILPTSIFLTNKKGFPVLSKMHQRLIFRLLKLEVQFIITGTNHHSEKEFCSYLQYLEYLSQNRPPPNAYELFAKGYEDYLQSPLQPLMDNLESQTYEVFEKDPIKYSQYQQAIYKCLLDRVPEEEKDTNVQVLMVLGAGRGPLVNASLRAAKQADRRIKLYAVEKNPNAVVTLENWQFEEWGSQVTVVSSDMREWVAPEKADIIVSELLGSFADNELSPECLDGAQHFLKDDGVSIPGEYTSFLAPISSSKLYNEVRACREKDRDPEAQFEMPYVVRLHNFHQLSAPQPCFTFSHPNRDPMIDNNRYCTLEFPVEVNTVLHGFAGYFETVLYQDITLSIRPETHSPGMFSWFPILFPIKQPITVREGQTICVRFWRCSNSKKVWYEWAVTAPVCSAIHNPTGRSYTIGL
UniProt P27361, sequence (whole entry, looked up): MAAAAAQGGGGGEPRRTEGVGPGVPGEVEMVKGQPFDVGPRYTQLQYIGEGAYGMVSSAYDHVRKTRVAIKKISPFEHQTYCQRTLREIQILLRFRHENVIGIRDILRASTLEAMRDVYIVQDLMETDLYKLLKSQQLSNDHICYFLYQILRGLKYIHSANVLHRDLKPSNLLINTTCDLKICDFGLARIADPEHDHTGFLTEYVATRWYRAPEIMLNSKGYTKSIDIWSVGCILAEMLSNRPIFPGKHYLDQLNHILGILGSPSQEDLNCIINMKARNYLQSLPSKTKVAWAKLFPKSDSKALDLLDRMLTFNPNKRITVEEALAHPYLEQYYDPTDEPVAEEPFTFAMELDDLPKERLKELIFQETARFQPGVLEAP

The remaining activity of `COc1ccc(-c2ccc(/C(C)=N/O)c(O)c2Cl)cc1C` is reported as 78% (SLC2A1; transporter uptake, inhibitor, radiometric; NCI-H1299; 30 µM).
With `NC/C(=C\F)COc1cccc(Cn2c(=S)[nH]c(=O)c3[nH]cnc32)c1` the remaining activity was 7.68% (MPO; enzyme activity, inhibitor; 1.25 µM).
The remaining activity of `COc1cc(-c2cncc3c2CN(C)Cc2cc(N4CCNCC4)ccc2-3)cc(OC)c1OC` is reported as 102% (Testis-specific serine/threonine-protein kinase 3 (TSSK3, Homo sapiens, UniProt Q96PN8); enzyme activity, inhibitor; 1 µM).
`O=C(Cn1c(=O)n(CC2CCCO2)c(=O)c2ccc(C(=O)NCCc3ccccc3)cc21)Nc1ccc(F)c(Cl)c1` (centres unmarked) has a remaining activity of 116% (RET; enzyme activity, inhibitor, radiometric; 0.1 µM).
`O=C1O[C@H]([C@@H](O)CO)C(O)=C1O` has an inhibition of 64.3% (DPPH scavenging, absorbance; 120 µg/mL).
For `NS(=O)(=O)c1ccc(CNc2ccnc(Nc3cccc(CN4CCOCC4)c3)n2)cc1`, the remaining activity was 61% (AAK1; enzyme activity, inhibitor, radiometric; 1 µM).
With `CNc1ncc2c(/C=C/C(=O)N3CCC(OC)CC3)nn(Cc3cccc(C(F)(F)F)c3)c2n1` the remaining activity was 106% (Serine/threonine-protein kinase 38 (STK38, Homo sapiens, UniProt Q15208); enzyme activity, inhibitor, radiometric; 1 µM).
`O=c1nc(N2CCN(CC3CCCCC3)CC2)sc2c([N+](=O)[O-])cc(C(F)(F)F)cc12` gave a concentration of 1170 ng/mL (CD-1 mouse, lung; intravenous, 10 mg/kg, 4 h).
For `COc1cccc(Nc2nc(C)c(C(=O)Nc3ccc4c(c3)OCO4)s2)c1`, the remaining activity was 55.3% (RET; enzyme activity, inhibitor, radiometric; 10 µM).
The remaining binding of `CCCCC(=O)Nc1ccc(-c2ccc3ncn(CCC)c(=O)c3c2)cn1` is reported as 100% (Ribosomal protein S6 kinase alpha-6, N-terminal kinase domain (RPS6KA6, Homo sapiens, UniProt Q9UK32); binding, competition with immobilised ligand; 0.5 µM).
The remaining activity of `C/C(=N\O)c1ccc(-c2cccc(O)c2)c(Cl)c1O` is reported as 16% (SLC2A1; transporter uptake, inhibitor, radiometric; NCI-H1299; 30 µM).
`CCOc1ccccc1NC(=O)Nc1cc(OC)c2nc(NC(=O)c3ccccc3)sc2c1` has a remaining activity of 101% (RET; enzyme activity, inhibitor, radiometric; 10 µM).
For `COc1ccc(Cl)cc1-c1cc(=O)[nH]c(=S)n1CC(N)=O`, the remaining activity was 71.9% (MPO; enzyme activity, inhibitor; 0.625 µM).
`C1=C/COCc2cc(ccc2OCCN2CCCC2)Nc2nccc(n2)-c2cccc(c2)COC/1` has a remaining signal of 88% (Serine/threonine-protein kinase LATS2 (LATS2, Homo sapiens, UniProt Q9NRM7); cell-free assay; 0.1 µM).
`Cc1cc([C@@H](C)Nc2ccccc2C(=O)O)c2nc(N3CCC(F)(F)CC3)c(C#N)c(=O)n2c1` has a remaining binding of 82% (NUAK family SNF1-like kinase 2 (NUAK2, Homo sapiens, UniProt Q9H093); binding, competition with immobilised ligand; 1 µM).
The remaining activity of `CCCOc1ccc(OC)c(F)c1C(=O)c1ccc(C(=O)N[C@@H]2CNC[C@H]2NC(=O)c2ccc3[nH]ncc3c2)cc1` is reported as -3% (Ribosomal protein S6 kinase alpha-1 (Rps6ka1, Rattus norvegicus, UniProt Q63531); enzyme activity, inhibitor; 10 µM).
With `COc1ccc(-c2ccc(/C(C)=N/O)c(O)c2Cl)cc1Cl` the remaining activity was 79% (SLC2A1; transporter uptake, inhibitor, radiometric; NCI-H1299; 30 µM).
`COc1cccc(OC)c1-c1cc(C(=O)NC2(C(=O)O)C3CC4CC(C3)CC2C4)nn1-c1ccc(C(=O)N(C)CCCN(C)CCCN(C)C(=O)CN2CCN(CC(=O)[O-])CCN(CC(=O)[O-])CCN(CC(=O)[O-])CC2)cc1C(C)C.[177Lu+3]` (centres unmarked) has a tracer uptake of 1 %ID/g (HT-29 tumour model; host not given, stomach; 4 h, tumour-bearing).
`C=CC(=O)N1CCC(COCC(=O)N2CCN(c3nc(-c4cnc(N)nc4C(F)F)nc(N4CCOC[C@@H]4C)n3)CC2)CC1` gave a remaining binding of 95% (SRSF protein kinase 3 (SRPK3, Homo sapiens, UniProt Q9UPE1); binding, competition with immobilised ligand; 1 µM).
For `Cc1ccc(NC(=O)Nc2ccc(Nc3cc(-n4ccnc4)nc(C)n3)cc2)c(C)c1`, the remaining activity was 95.5% (RET; enzyme activity, inhibitor, radiometric; 0.1 µM).
For `NS(=O)(=O)c1ccc(CNc2nc(Nc3cccc(CN4CCOCC4)c3)ncc2C2CC2)cc1`, the remaining activity was 70% (AAK1; enzyme activity, inhibitor, radiometric; 1 µM).
The remaining signal of `Nc1ncnc2occ(-c3ccc(NC(=O)Nc4cc(C(F)(F)F)ccc4F)cc3)c12` is reported as 1.3% (Eukaryotic translation initiation factor 2-alpha kinase 1 (EIF2AK1, Homo sapiens, UniProt Q9BQI3); cell-free assay, inhibitor; 20 µM).
With `C/C(=N\O)c1ccc(-c2ccc(C#N)cc2)c(Cl)c1O` the remaining activity was 78% (SLC2A1; transporter uptake, inhibitor, radiometric; NCI-H1299; 30 µM).
`N=C(N)c1ccc(-c2ccc(-c3ccc(C(=N)N)cc3)o2)cc1` gave a remaining activity of 89.3% (Protein arginine N-methyltransferase 5 (PRMT5, Homo sapiens, UniProt O14744); enzyme activity, inhibitor, radiometric; 20 µM).
With `Cc1cc(NC(=O)Nc2ccc(F)cc2)cc2sc(NC(=O)c3ccccc3)nc12` the remaining activity was 78.8% (RET; enzyme activity, inhibitor, radiometric; 10 µM).
`COc1cccc(-c2n[nH]c(SCc3ccccn3)n2)c1OC` has a concentration of 22400 ng/mL (female Sprague-Dawley rat, plasma; oral, 30 mg/kg, 1 h, single dose).
`CC(=O)OCc1cnc(C)c2oc(=Nc3ccc(F)cc3)c(C(=O)Nc3ccc4c(c3)OCO4)cc12` has a remaining activity of 101% (RET; enzyme activity, inhibitor, radiometric; 10 µM).
For `CC[C@H](C)[C@H](NC(=O)[C@H](CCC(N)=O)NC(=O)[C@@H](NC(=O)[C@H](CCSC)NC(=O)[C@H](CCCCN)NC(=O)[C@H](CO)NC(=O)[C@@H](NC(=O)[C@H](CCSC)NC(=O)[C@H](CC(C)C)NC(=O)[C@H](CC(N)=O)NC(=O)[C@@H](NC(=O)[C@@H](NC(=O)[C@H](CO)NC(=O)[C@H](CC(C)C)NC(=O)[C@H](C)NC(=O)[C@H](CCCNC(=N)N)NC(=O)[C@H](CCC(=O)O)NC(=O)[C@H](Cc1ccc(O)cc1)NC(=O)[C@H](Cc1ccccc1)NC(=O)[C@H](C)NC(=O)[C@H](CC(N)=O)NC(=O)[C@@H](N)CCCCN)[C@@H](C)CC)[C@@H](C)CC)[C@@H](C)O)C(C)C)C(=O)N[C@@H](CC(N)=O)C(=O)N[C@H](C(=O)O)C(C)C`, the remaining activity was 92% (Cyclin-dependent kinase 5, with p25 (CDK5, Homo sapiens, UniProt Q00535); enzyme activity, inhibitor, radiometric; 10 µM, 20 min).
The remaining activity of `COc1ccc(NC(=O)Nc2ccccc2-c2nc(-c3ccoc3)n[nH]2)cc1` is reported as 53.6% (RET; enzyme activity, inhibitor, radiometric; 10 µM).
`Cc1cccc(N(O)N=Nc2ccc(S(=O)(=O)Nc3onc(C)c3C)cc2)c1` has an inhibition of 33.7% (DPPH scavenging, absorbance; 300 µg/mL).
`Cc1nn(CC(F)(F)F)cc1Nc1nccc(NCc2ccc(S(N)(=O)=O)cc2)n1` has a remaining activity of 82% (AAK1; enzyme activity, inhibitor, radiometric; 1 µM).
`CC[C@H](C)[C@H](NC(=O)[C@H](CCC(N)=O)NC(=O)[C@H](CC(C)C)NC(=O)[C@H](CCSC)NC(=O)[C@H](CCCCN)NC(=O)[C@H](CO)NC(=O)[C@H](CO)NC(=O)[C@H](CCSC)NC(=O)[C@H](CC(C)C)NC(=O)[C@H](CC(N)=O)NC(=O)[C@@H](NC(=O)[C@@H](NC(=O)[C@H](CO)NC(=O)[C@H](CC(C)C)NC(=O)[C@H](CS)NC(=O)[C@H](CCCNC(=N)N)NC(=O)[C@H](CC(=O)O)NC(=O)[C@H](Cc1c[nH]c2ccccc12)NC(=O)[C@H](Cc1ccccc1)NC(=O)[C@H](C)NC(=O)[C@H](CCC(=O)O)NC(=O)[C@@H](N)CCCCN)C(C)C)[C@@H](C)CC)C(=O)N[C@@H](CC(N)=O)C(=O)N[C@@H](C)C(=O)O` gave a remaining activity of 75% (Mitogen-activated protein kinase 3 (MAPK3, Homo sapiens, UniProt P27361); enzyme activity, inhibitor, radiometric; 500 µM, 20 min).

For quick reference, copied from above:
With `Cc1cc(NC(=O)Nc2ccc(F)cc2)cc2sc(NC(=O)c3ccccc3)nc12` the remaining activity was 78.8% (RET; enzyme activity, inhibitor, radiometric; 10 µM).
With `C/C(=N\O)c1ccc(-c2ccc(C#N)cc2)c(Cl)c1O` the remaining activity was 78% (SLC2A1; transporter uptake, inhibitor, radiometric; NCI-H1299; 30 µM).
With `NC/C(=C\F)COc1cccc(Cn2c(=S)[nH]c(=O)c3[nH]cnc32)c1` the remaining activity was 7.68% (MPO; enzyme activity, inhibitor; 1.25 µM).
`N=C(N)c1ccc(-c2ccc(-c3ccc(C(=N)N)cc3)o2)cc1` gave a remaining activity of 89.3% (Protein arginine N-methyltransferase 5 (PRMT5, Homo sapiens, UniProt O14744); enzyme activity, inhibitor, radiometric; 20 µM).
